Assay results gathered from unrelated publications.
Lines come from different studies, so protocols differ. Numbers after ± are the reported error.
Nuclear receptor subfamily 2 group C member 2 ligand-binding domain: Nuclear receptor subfamily 2 group C member 2, ligand-binding domain (Homo sapiens, UniProt P49116)
ADRA2A: Alpha-2A adrenergic receptor (ADRA2A, Homo sapiens, UniProt P08913)
YWHAG/RELA phospho-Ser45 p65 peptide: YWHAG/RELA, phospho-Ser45 p65 peptide (Homo sapiens, UniProt P61981+Q04206)

Structure (SMILES) = NC(=O)c1cccnc1; target or system = Nuclear receptor subfamily 2 group C member 2 ligand-binding domain; test = SPR imaging; measurement = Kd; value = 54.6 pM
Structure (SMILES) = Cc1ncsc1-c1ccc([C@H](CC(=O)N2CCN(c3ccc(C#Cc4ccc(C(=O)N5CCC(n6cc(-c7ccc8c(c7)CCN8C(=O)Cc7cccc(OC(F)(F)F)c7)c7c(N)ncnc76)CC5)cc4)cn3)CC2)NC(=O)[C@@H]2C[C@@H](O)CN2C(=O)[C@@H](NC(=O)C2(F)CC2)C(C)(C)C)cc1; target or system = RIPK1 (Homo sapiens, UniProt Q13546); test = degrader, Western blot; test system = MOLM-14; measurement = DC50; value = 0.0028 µM
Structure (SMILES) = Cc1cc(Oc2ncccc2CN2CCN(c3ccccc3O)CC2)ccc1-c1c(C)c(=O)[nH]c(=O)n1C; target or system = ADRA2A; test = inhibitor, radioligand binding; conditions = together with: [3H]rauwolscine; measurement = Ki; value = 0.0571 µM
Structure (SMILES) = COC1CCCN(c2cc(C=O)ccc2[N+](=O)[O-])C1 (centres unmarked); target or system = YWHAG/RELA phospho-Ser45 p65 peptide; test = ternary complex formation, stabilizer, fluorescence anisotropy; measurement = EC50; value = > 1000 µM
Structure (SMILES) = COC(=O)[C@H]1[C@H]2C[C@@H]3c4[nH]c5cc(OC)ccc5c4CCN3C[C@H]2C[C@@H](OC(=O)c2cc(OC)c(OC)c(OC)c2)[C@@H]1OC; target or system = Nuclear receptor subfamily 2 group C member 2 ligand-binding domain; test = SPR imaging; measurement = Kd; value = 8990 pM
Structure (SMILES) = Cc1ccc(C(=O)Oc2cc(C=O)ccc2[N+](=O)[O-])cc1F; target or system = YWHAG/RELA phospho-Ser45 p65 peptide; test = ternary complex formation, stabilizer, fluorescence anisotropy; measurement = EC50; value = > 1000 µM
Structure (SMILES) = CCN(CC)C(=O)C1(c2ccccc2)CC1CN (centres unmarked); target or system = Nuclear receptor subfamily 2 group C member 2 ligand-binding domain; test = SPR imaging; measurement = Kd; value = 1330 pM
Structure (SMILES) = CC(C)N1CCN(c2cc(C=O)ccc2[N+](=O)[O-])CC1; target or system = YWHAG/RELA phospho-Ser45 p65 peptide; test = ternary complex formation, stabilizer, fluorescence anisotropy; measurement = EC50; value = > 1000 µM
Structure (SMILES) = Oc1ccc(OCc2ccccc2)cc1; target or system = Nuclear receptor subfamily 2 group C member 2 ligand-binding domain; test = SPR imaging; measurement = Kd; value = 20100 pM
Structure (SMILES) = O=Cc1ccc([N+](=O)[O-])c(OC(=O)c2cccc(Cl)c2)c1; target or system = YWHAG/RELA phospho-Ser45 p65 peptide; test = ternary complex formation, stabilizer, fluorescence anisotropy; measurement = EC50; value = > 1000 µM
Structure (SMILES) = COc1cc(/C=C/C(=O)N2CCN(CC(=O)N3CCCC3)CC2)cc(OC)c1OC; target or system = Nuclear receptor subfamily 2 group C member 2 ligand-binding domain; test = SPR imaging; measurement = Kd; value = 157 pM
Structure (SMILES) = CN(C)c1ccc(C(=O)NCCCCCC(=O)NO)cc1; target or system = OCI-Ly1; conditions = 0.5 µM, 120 h; measurement = viability; value = 144%
Structure (SMILES) = C#C[C@]1(O)CC[C@H]2[C@@H]3CCc4cc(O)ccc4[C@H]3CC[C@@]21C; target or system = Nuclear receptor subfamily 2 group C member 2 ligand-binding domain; test = SPR imaging; measurement = Kd; value = 15.3 pM
Structure (SMILES) = O=Cc1ccc([N+](=O)[O-])c(N2CCC(O)CC2)c1; target or system = YWHAG/RELA phospho-Ser45 p65 peptide; test = ternary complex formation, stabilizer, fluorescence anisotropy; measurement = EC50; value = > 1000 µM
Structure (SMILES) = Cc1ccccc1C(=O)Nc1ccc(C(=O)N2CCCC(O)c3cc(Cl)ccc32)c(C)c1 (centres unmarked); target or system = Nuclear receptor subfamily 2 group C member 2 ligand-binding domain; test = SPR imaging; measurement = Kd; value = 53.8 pM
Structure (SMILES) = N#CC1CCN(c2cc(C=O)ccc2[N+](=O)[O-])CC1; target or system = YWHAG/RELA phospho-Ser45 p65 peptide; test = ternary complex formation, stabilizer, fluorescence anisotropy; measurement = EC50; value = > 1000 µM
Structure (SMILES) = Nc1ncnc2c1ncn2[C@@H]1O[C@H](C[C@@H](N)CC[C@H](N)C(=O)O)[C@@H](O)[C@H]1O; target or system = PNMT (Homo sapiens, UniProt P11086); test = enzyme activity, inhibitor, coupled-enzyme; measurement = Ki; value = 16.7 ± 4.3 µM
Structure (SMILES) = Nc1ccn([C@@H]2CS[C@H](CO)O2)c(=O)n1; target or system = Nuclear receptor subfamily 2 group C member 2 ligand-binding domain; test = SPR imaging; measurement = Kd; value = 15900 pM
Structure (SMILES) = O=c1n(CCCN2CCN(c3cccc(Cl)c3)CC2)nc2ccccn12; target or system = HRH4 (Homo sapiens, UniProt Q9H3N8); measurement = Ki; value = > 10 µM
Structure (SMILES) = CCCCC[C@H](O)/C=C/[C@H]1[C@H](O)CC(=O)[C@@H]1C/C=C\CCCC(=O)O; target or system = PTGER1 (Homo sapiens, UniProt P34995, F334L); test = IP1 accumulation, agonist; test system = AD293; measurement = EC50; value = 0.0586 µM
Structure (SMILES) = CC1(C)Cc2c(sc(NC(=O)c3ccn[nH]3)c2C(N)=O)C(C)(C)O1; target or system = CFTR (Homo sapiens, UniProt P13569, D924R/R347D); test = channel current, activator, inside-out patch clamp; test system = CHO cells, transfected; measurement = EC50; value = 2.06 ± 0.2 µM
Structure (SMILES) = CC[C@@H]1[C@H](F)C(=O)N[C@@H]1COc1nccc2cc(C(N)=O)c(OC)cc12; target or system = MARK4 (Homo sapiens, UniProt Q96L34); test = ATP-site probe binding, ActivX profiling; test system = THP-1 cell lysate; conditions = Lys2 site; measurement = IC50; value = > 5 µM
Structure (SMILES) = O=Cc1ccc([N+](=O)[O-])c(OC(=O)c2ccc(Cl)cc2)c1; target or system = YWHAG/RELA phospho-Ser45 p65 peptide; test = ternary complex formation, stabilizer, fluorescence anisotropy; measurement = EC50; value = > 1000 µM
Structure (SMILES) = CNC(=O)[C@@]12C[C@@H]1[C@@H](n1cnc3c(NC)nc(C#Cc4cnccn4)nc31)[C@H](O)[C@@H]2O; target or system = ADRA2A; test = radioligand binding (PDSP); measurement = Ki; value = 1 to 10 µM
Structure (SMILES) = CC(=O)N1CCN(S(=O)(=O)c2ccc(C=O)cc2)CC1; target or system = YWHAG/RELA phospho-Ser45 p65 peptide; test = ternary complex formation, stabilizer, fluorescence anisotropy; measurement = EC50; value = > 1000 µM
Structure (SMILES) = CC(=O)N[C@@H](CC(C)C)C(=O)N[C@@H](CC(C)C)C(=O)N[C@@H](CC(C)C)C(=O)N[C@@H](CCCNC(=N)N)C(=O)N[C@H](C(=O)N[C@@H](CCCCN)C(=O)N[C@@H](CCCNC(=N)N)C(N)=O)C(C)C; target or system = proprotein convertase 1/3 (human); test = inhibitor; measurement = Ki; value = 0.12 ± 0.04 µM
Structure (SMILES) = CN1CC2c3ccccc3Oc3ccc(Cl)cc3C2C1 (centres unmarked); target or system = HTR1A (Homo sapiens, UniProt P08908, K405A); test = agonist; measurement = EC50; value = 0.0516 µM
Structure (SMILES) = COc1cc2nc(N3CCCN(C)CC3)nc(NC3CCN(Cc4ccccc4)CC3)c2cc1OC; target or system = OCI-Ly1; conditions = 0.1 µM, 120 h; measurement = viability; value = 187%
Structure (SMILES) = O=C(O)[C@@H]1C[C@H](CP(=O)(O)O)CCN1; target or system = NMDA receptor (rat); test = radioligand binding, antagonist; measurement = Ki; value = 0.16 µM

For quick reference, copied from above:
Structure (SMILES) = COC1CCCN(c2cc(C=O)ccc2[N+](=O)[O-])C1 (centres unmarked); target or system = YWHAG/RELA phospho-Ser45 p65 peptide; test = ternary complex formation, stabilizer, fluorescence anisotropy; measurement = EC50; value = > 1000 µM
Structure (SMILES) = O=C(O)[C@@H]1C[C@H](CP(=O)(O)O)CCN1; target or system = NMDA receptor (rat); test = radioligand binding, antagonist; measurement = Ki; value = 0.16 µM
